# Results of several laboratories.
# Parts stem from different laboratories: compare values within a part only.

# Study 1 — method: RNA Bind-n-Seq; molecule type: RNA; sample: in vitro; tested at: 365 nM; reference: no-protein control; reading: higher = stronger binding
# Target: RNA binding protein fox-1 homolog 2, RRM domain, GST-SBP tag (RBFOX2, Homo sapiens, UniProt O43251-10, residues 100-194)
# Notes: natural RNA segment, single round, ends assumed
# Constant ends, left off below: GGGAGUUCUACAGUCCGACGAUC … UGGAAUUCUCGGGUGCCAA
# Construct (chain): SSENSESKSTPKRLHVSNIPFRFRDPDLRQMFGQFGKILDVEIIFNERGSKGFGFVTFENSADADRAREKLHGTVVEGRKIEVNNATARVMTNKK
Oligonucleotide,RBNS enrichment (R)
GGUUUCCAAGAUAGCACAGUGACCACAAAGGGAGAUUUUAGCAGAGCCAGCCUGCUAGAAGGCAGGAGUAGCCAGAAUGGAACAUCUGUGCAGAAAGUAGGCCAUUCUCA,0.651
UUUUAAACCUCCCUGUAUAGAAAAUAUCAUUAAGGAUGUAAAAGCCAUGCUUGCCUAUUUGCUGUAUACAUGUAAUGAAAUUGUAGAUAAAGUGUAGUGCAUUGAAACAA,1.61
CCAGCUAUAACCACAAUCCUUGCCUGAGGCCUUUUGAUUUCUGUUUGGCUGUGCCUGGGUAGGGGCACUGUGCCUGCUUCUGAUUUUGAAAGAAGCAUCCUGGAAACCAU,1.5
UGACCCUGUUUCAGAAGCAGGAUAGUAUAAAAGCAUCAGCCUAAGAAUGGCACUCCCACUAACUAGCUAUGUAAUCUUGACCUCUUUGGGCUUUAGUUCCUCUCAUAAAA,0.803
GUCCCCUCCACUUCCACUGCCAAACAGCUUGGUGAAGAAACAAGAAGGGAACUAUGCCCUGGGCCAGGGCGAAUGCGUGGCUGGGCAGUGCCCAUCAUGGCAUUUUCACA,3.08
UGGUUGAACAAGGGAAUCACAAGAAAACGAAAAUGCAAAAACUGAACUUCGGGGGUCGUUCUGUGCCUUCCAGCAUCUUGUACAGCAAAUCCUGACUCGUGUCUUUUUAC,1.21
ACAGCCUCAGCCGGGGCCACCAGCACUGCUGCCACUUCUUCCAGCCCCAGCCAAAGGCGUGGCUGUCAGGGCUGGGCCCUGUAGUGCUGGACUCUCCCGGGCCACAAUAG,0.403
UUCAAUAGCGGCUGGCUUUUUGUGAUUCAGUAACUUAAAUAUUGCCAGUGACUGAGGAUCCCCUCCAGUCAUGGUUCUGUAUAUUCUUUGAGACAGGUGUUUUCAUCUUC,0.276
ACCUGUGUGUUCUUUUGAUACAUUUAUCUUCUGUUUUUCUCAAAUAAAGUUCAAAGCAACCACCUGUCACUGGCCCAGGCCCUGGUGUUUGUGGAAGGAAGCCUCAGGCA,0.248
AGCCAAACAAGAAUCAGUUGAUCCCCUUGCACUUUGGACACUUCAAUGGAGCCUGAGCUGCUUAGAAGCCUUGGUUCAGGAUUCCAGCUGGGUUCAUGACUGUGAACACA,0.291
CAAAGCCUCUCCAGCUAGCUGGGGCUCCUCCCCCUUCUGAGAGACUUGCGCUCCCGCAGGGAACACACAGGCCUCCUUGGGGGCGGGGGACCAUAUUUCACAGAGCAAUG,0.199
CUACCACCCCUAGUAAGCAGGGUAGGAGCAACAGAUUCAAGAUGAGAGAAGUAUGUGUUUGUUUUUAACAUGAUGCUAGUUAGAGAACAGUCUUAUCAGCAAAUUACUCU,0.57

# Study 2 — method: protein binding microarray; molecule type: double-stranded DNA, one strand shown; sample: in vitro; tested at: not given; reference: not given; reading: higher = stronger binding
# Target: Histone acetyltransferase KAT6A, both winged helices, GST fusion (KAT6A, Homo sapiens, UniProt Q92794, residues 1-181)
# Notes: 8-mer, flanks averaged, mean of 2 arrays, mostly near background
# Target sequence (chain): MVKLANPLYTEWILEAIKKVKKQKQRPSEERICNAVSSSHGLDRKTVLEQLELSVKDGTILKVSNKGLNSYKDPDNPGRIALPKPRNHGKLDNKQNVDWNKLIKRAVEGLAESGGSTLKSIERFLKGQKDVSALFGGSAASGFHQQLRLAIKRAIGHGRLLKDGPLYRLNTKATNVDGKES
Oligonucleotide,E-score
AACAGATA,-0.133
ACTTCCGA,0.000335
CATGGAGC,-0.0492
ATAGGGTC,-0.12
ACCGGACT,0.121
CGCTCGCC,0.181
ATAGTTCC,-0.115
CGGATGTA,0.201
AACTCGGT,-0.0686
ACGATAAC,0.0103
GAGCCATA,-0.111
AAAGGAGG,-0.217
CCCGTAAG,0.118
TCAATTGA,-0.0984
CCCGCAGC,0.123
ATATTTGG,-0.152

# Study 3 — method: RNA Bind-n-Seq; molecule type: RNA; sample: in vitro; tested at: 200 nM; notes: whole 134-nt RNA, ends assumed; added: 150 mM LiCl; reference: input library; reading: higher = stronger binding; library: 7-deaza-guanosine replaces G
# Target: Fragile X messenger ribonucleoprotein 1, C-terminal low-complexity region (Fmr1, Mus musculus, UniProt P35922)
# Constant ends, left off below: GGGAGUUCUACAGUCCGACGAUC … UGGAAUUCUCGGGUGUCAAGG
Oligonucleotide,log2 enrichment
CCUCAAGUCCUGUGCUACACAUCGUAUGUACCGAAUCGGGGAGGAGGGAGGGGAAAGUAUUAUGUUACGCCGUUCGGAUCUGCACUUCCA,-1.12
CUCAAGUCCUGUGCUACACAUCGUAUGUACCGAAUCGGAAGGGGAAGGGAAGGGAAAGUAUUAUGUUACGCCGUUCGGAUCUGCACUUCC,-0.0521
AGUCCUGUGCUACACAUCGUAUGUACCGAAUCGGUUUUUGGGGUUUUUGGUUUUUGGGAAAGUAUUAUGUUACGCCGUUCGGAUCUGCAC,-1.3
AGUUACGGUAGCAGUUCUCAGAGCAGCAGCUAUGGGCAGCCCCAGAGUGGGAGCUACAGCCAGCAGCCUAGCUAUGGUGGACAGCAGCAA,-2.47
UGUGCUACACAUCGUAUGUACCGAAUCGGGGAAAAAAAGGGGAAAAAAAGGGAAAAAAAGGGGAAAGUAUUAUGUUACGCCGUUCGGAUC,1.27
GCAGGAAGUAAAAACAAAUGGAAAUGCUUCGGAUAGUGACAGGGGUGGGGGUUGCUAAGGAAAGGGUGGGAUGGGAGUGGGUAAAGAGUU,1.36
UCUCUUAUGCUAUUGGAGUUUCUCAUCCAUUAUCUAUCUCCAUUUUCCAUUAUGGUACCUCUCAGAAGAGUGAGAGAGAGCUAUUAGAGA,0.189
CUCAAGUCCUGUGCUACACAUCGUAUGUACCGAAUCGGAAAGGUUUGGAAAGGAAAGUAUUAUGUUACGCCGUUCGGAUCUGCACUUCCA,-0.0132
AAGUCCUGUGCUACACAUCGUAUGUACCGAAUCGGGGUUUUGGUUUUGGUUUUGGGGAAAGUAUUAUGUUACGCCGUUCGGAUCUGCACU,-1.55
AAGUCCUGUGCUACACAUCGUAUGUACCGAAUCGGGAAAGGGGAAAGGGGAAAGGGGAAAGUAUUAUGUUACGCCGUUCGGAUCUGCACU,1.17
GCAGGAAGUAAAAACACAUGGAAAUGCUUCGGAUAGUGGCAGGGGUGGGGGUUGCUAAGGAAAGGGUGGGAUGGGAGUGGGUAAAGAGUU,1.71

# Study 4 — method: universal PBM; molecule type: double-stranded DNA, one strand shown; sample: in vitro; tested at: 600 nM; reading: higher = stronger binding
# Target: Sal-like protein 4, full length isoform A (SALL4, Homo sapiens, UniProt Q9UJQ4, residues 1-1053)
# Chain of UniProt Q9UJQ4 (whole entry, looked up): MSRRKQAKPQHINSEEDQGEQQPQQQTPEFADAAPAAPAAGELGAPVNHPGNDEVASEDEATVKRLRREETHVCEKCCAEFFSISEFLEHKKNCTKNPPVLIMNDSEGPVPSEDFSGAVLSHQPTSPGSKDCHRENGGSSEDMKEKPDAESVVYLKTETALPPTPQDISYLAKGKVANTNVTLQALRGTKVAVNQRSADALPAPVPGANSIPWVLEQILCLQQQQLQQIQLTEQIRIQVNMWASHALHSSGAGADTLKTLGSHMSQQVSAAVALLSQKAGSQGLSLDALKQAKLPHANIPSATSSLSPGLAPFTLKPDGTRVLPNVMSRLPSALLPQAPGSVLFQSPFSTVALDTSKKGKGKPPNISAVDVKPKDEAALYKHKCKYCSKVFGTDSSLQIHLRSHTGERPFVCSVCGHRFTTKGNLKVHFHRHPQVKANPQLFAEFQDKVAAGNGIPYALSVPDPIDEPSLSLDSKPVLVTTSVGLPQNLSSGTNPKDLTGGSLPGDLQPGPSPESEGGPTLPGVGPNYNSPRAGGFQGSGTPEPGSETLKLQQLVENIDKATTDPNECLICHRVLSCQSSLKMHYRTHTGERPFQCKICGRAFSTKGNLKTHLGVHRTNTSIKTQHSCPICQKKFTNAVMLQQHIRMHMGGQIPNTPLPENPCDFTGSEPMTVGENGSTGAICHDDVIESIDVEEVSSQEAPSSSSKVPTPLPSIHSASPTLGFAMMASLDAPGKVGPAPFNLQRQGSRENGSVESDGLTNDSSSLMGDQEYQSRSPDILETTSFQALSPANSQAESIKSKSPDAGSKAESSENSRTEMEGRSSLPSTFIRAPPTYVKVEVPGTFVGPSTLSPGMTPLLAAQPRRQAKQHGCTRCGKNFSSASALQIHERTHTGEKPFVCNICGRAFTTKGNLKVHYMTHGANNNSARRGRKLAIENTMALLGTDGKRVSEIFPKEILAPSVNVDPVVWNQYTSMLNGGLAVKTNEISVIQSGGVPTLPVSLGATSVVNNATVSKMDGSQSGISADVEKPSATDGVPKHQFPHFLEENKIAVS
# Notes: 8-mer, flanks averaged, mean of replicates
Oligonucleotide,E-score
ACACCATG,-0.19
CTCAATGA,-0.023
CTAAACAG,0.103
AGAGGATG,-0.0891
AGAACCCG,-0.245
ACGCCATA,0.0533
ACCGGTGC,-0.316
AGTTTTCG,0.0789
CAATTCGG,-0.0415
GCCGTCCA,-0.098
CGAATAGA,-0.0873
CAGGACCA,-0.289
GACGGAAA,0.0172
TTACGTAA,0.202
ACCACGGG,-0.298
ACCGAGGT,-0.258
CGCCAACC,-0.234
AATGAACA,0.173
CGAGTACG,-0.132
CACCGCCG,-0.272
CTATTCGA,0.108
AGTTAGGC,-0.074
AATTAACT,0.224
AGAATGAT,0.253
CCTGTTCC,-0.216

# Study 5 — method: aptamer microarray, sandwich; molecule type: DNA with 2'F-ANA; sample: in vitro; tested at: 200 nM; added: Cy3 exosite-II aptamer, 400 nM; reading: higher = stronger binding; oligonucleotide: GGTTGGTGTGGTTGG
# Target: Prothrombin, mature alpha-thrombin (F2, Homo sapiens, UniProt P00734)
# Notes: whole 15-mer aptamer, many near background
Modification,mean fluorescence intensity [a.u.]
2'F-ANA at 1 2 6 7 8 11 13 15,123
2'F-ANA at 2 3 4 5 6 13,56.9
2'F-ANA at 1 3 4 11 14,69.7
2'F-ANA at 1 5 7 9 13 15,47.8
2'F-ANA at 2 3 4 5 6 7 8 9 14,72.2
2'F-ANA at 1 3 6 8 11 12 13,649
2'F-ANA at 1 2 3 6 7 8 10 12 15,91.3
2'F-ANA at 5 7 9 10 11 12 13 14,59.7
2'F-ANA at 1 2 3 6 13,169
2'F-ANA at 1 2 4 8 10 11 14 15,48.7
2'F-ANA at 4 5 10 11 12 13,48.9
2'F-ANA at 1 2 3 4 6 7 9 10 12 13,66
2'F-ANA at 4 6 7 10 11 12 13 15,75.9
2'F-ANA at 1 2 3 5 7 10 13 14,62
2'F-ANA at 2 3 7 9 10 12,479
2'F-ANA at 3 5 7 10 12 13 15,89.3
2'F-ANA at 2 4 8 13 15,335
2'F-ANA at 1 2 5 6 7 8 12 14,77.2
2'F-ANA at 3 6 7 8 9 10 14,419

# A few entries again (study 4):
Oligonucleotide,E-score
AGAGGATG,-0.0891
AGAACCCG,-0.245
ACGCCATA,0.0533
ACCGGTGC,-0.316
AGTTTTCG,0.0789
CAATTCGG,-0.0415
GCCGTCCA,-0.098
CGAATAGA,-0.0873
CAGGACCA,-0.289
GACGGAAA,0.0172
TTACGTAA,0.202
ACCACGGG,-0.298
ACCGAGGT,-0.258
CGCCAACC,-0.234
